Measured values from different studies.
Target: Tyrosine-protein kinase CSK (CSK, Homo sapiens, UniProt P41240)
UniProt P41240, sequence (whole entry, looked up): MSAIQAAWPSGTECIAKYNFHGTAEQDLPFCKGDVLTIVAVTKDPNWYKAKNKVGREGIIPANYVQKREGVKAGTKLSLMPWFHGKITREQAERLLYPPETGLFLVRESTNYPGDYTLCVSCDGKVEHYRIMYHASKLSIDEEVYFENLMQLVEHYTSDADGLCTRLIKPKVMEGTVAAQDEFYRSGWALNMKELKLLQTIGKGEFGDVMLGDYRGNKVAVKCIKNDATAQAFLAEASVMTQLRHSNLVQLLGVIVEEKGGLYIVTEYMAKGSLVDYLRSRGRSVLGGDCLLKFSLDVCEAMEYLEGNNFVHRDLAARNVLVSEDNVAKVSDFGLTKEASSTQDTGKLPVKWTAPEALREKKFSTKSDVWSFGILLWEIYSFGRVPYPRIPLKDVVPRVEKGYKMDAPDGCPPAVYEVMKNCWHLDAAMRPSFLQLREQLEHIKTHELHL

[2H]c1cc(C)c(NC(=O)c2cnc(Nc3cc(N4CCCCC4)nc(C)n3)s2)c(Cl)c1
inhibition (0.01 µM): 30 to 90%

COc1cc(-c2cncc3c2CN(C)Cc2cc(N4CCNCC4)ccc2-3)cc(OC)c1OC
remaining activity (kinase activity; 1 µM, human enzyme, added: ATP 10 µM; relative to: DMSO control): 106%

C=CC(=O)N1CCC(COCC(=O)N2CCN(c3nc(-c4cnc(N)nc4C(F)F)nc(N4CCOC[C@@H]4C)n3)CC2)CC1
remaining binding (KINOMEscan; 1 µM; relative to: DMSO control): 100%

C1=C/COCc2cc(ccc2OCCN2CCCC2)Nc2nccc(n2)-c2cccc(c2)COC/1
percent of control (concentration not given): 88%

CCN(CC)c1ccc(C2=NNC(=O)CC2C)cc1[N+](=O)[O-] (stereo not drawn)
remaining activity (enzyme activity, inhibitor; 10 µM; relative to: vehicle): 69%

C[C@@H](c1ccc(-n2cnc3c(N)ncnc32)cc1)N1CCc2nn(C)c(Cc3ccccc3)c2C1=O
remaining binding (KINOMEscan; 0.1 µM; relative to: DMSO control): 96%

CCCOc1ccc(OC)c(F)c1C(=O)c1ccc(C(=O)N[C@@H]2CNC[C@H]2NC(=O)c2ccc3[nH]ncc3c2)cc1
remaining activity (enzyme activity; 10 µM): 106%

COc1ccc(F)cc1C(=O)NCc1ccc(-c2nn([C@@H](C)C(F)(F)F)c(N)c2C(N)=O)cc1
inhibition (probe binding, competitive chemoproteomics; human PBMCs; 10 µM): 30.1%

C=CC(=O)N1CCC(C(=O)NCC(=O)N2CCN(c3nc(-c4cnc(N)nc4C(F)F)nc(N4CCOCC4)n3)CC2)CC1
remaining binding (KINOMEscan; 1 µM): 100%

O=C(NC1CCC1)c1ccc2nc(-c3cccc(NS(=O)(=O)NCCN4CCCCC4)c3)cn2c1
remaining activity (enzyme activity; 10 µM): 100%

O=C1NC(=O)/C(=C/c2ccc(-c3ccc(F)cc3O)o2)S1
remaining activity (enzyme activity; 10 µM): 100%

COc1cc(F)ccc1-c1ncnc(Nc2cccc(C[S@](C)(=N)=O)c2)n1
remaining activity (kinase activity; 10 µM, added: 10 µM ATP): 95%
